Measurements pooled from the literature.
Parts stem from different laboratories: compare values within a part only. Several values in a cell are separate wells, animals, samples, runs or records.

Sample 1
Structure (SMILES): CCN1/C(=C/C=C2\CCCC(/C=C/C3=[N+](CC)c4ccccc4C3(C)C)=C2NCCCCCCCCN2CCC(Nc3nc4ccccc4n3Cc3ccc(F)cc3)CC2)C(C)(C)c2ccccc21
Cell line: U-87 MG
Tested at: concentration not given
Baseline: DMSO
assay | log2 fold change
item: C4orf33 mRNA | -1.03
item: SERP1 mRNA | 1.24
item: CDKN3 mRNA | -1.61
item: ID3 mRNA | -2.25
item: INSR mRNA | 0.987
item: RIN2 mRNA | -2.35
item: FAM50B mRNA | -0.998
item: CIITA mRNA | -2.01
item: FAAP24 mRNA | -0.835
item: CDK17 mRNA | 0.809
item: LIMA1 mRNA | -1.22

Sample 2
SMILES: Cc1nc(C)c(C=[N+]([O-])C(C)(C)C)nc1C
Notes: unit not given
Baseline: β-actin
tested on | assay | system | setting | protein level
– | Western blot, item: TFAM | MPTP-treated mice, substantia nigra cytosol | 90 mg/kg | 131 and 132 and 124 and 123
– | western blot, item: HO-1 | MPTP mouse model, substantia nigra nuclei | 30 mg/kg | 79.8 and 113 and 76.7
– | Western blot, item: PGC-1α | primary midbrain neurons, rat | 100 µM, together with: MPP+ | 143 and 81.5 and 115
– | Western blot, item: PGC-1α | primary midbrain neurons, rat | 30 µM, together with: MPP+ | 87.5 and 110 and 114
primary rat midbrain neurons | Western blot, item: SIRT1 | – | 30 µM, together with: MPP+ | 78.5 and 115 and 119
– | Western blot, item: MEF2D | MPTP-treated mice, substantia nigra cytosol | 90 mg/kg | 144 and 121 and 95.8 and 100
– | western blot, item: Nrf2 | MPTP mouse model, substantia nigra nuclei | 30 mg/kg | 98.5 and 133 and 99
– | Western blot, item: tyrosine hydroxylase | MPTP mouse model, substantia nigra | 30 mg/kg | 105 and 99.5 and 90.4 and 103
primary rat midbrain neurons | Western blot, item: SIRT1 | – | 300 µM, together with: MPP+ | 167 and 146 and 161
– | Western blot, item: TFAM | MPTP-treated mice, substantia nigra cytosol | 10 mg/kg | 99.9 and 65.3 and 82.1 and 72.6

Sample 3
Compound: CCN1CCN(Cc2ccc(COc3c(-c4c(C)c(F)cc5[nH]ncc45)c(C4CC4)cc4c(N5C[C@@H]6C[C@H]5CN6)nc(OC5CCOCC5)nc34)cc2)C(=O)C1
Cell line: A-375 (KRAS wild type)
Method: in-cell ELISA
Item: phospho-ERK1/2
Time: 2 h
setting | ERK1/2 phosphorylation
10 µM | 149% and 120% and 109% and 116%
30 nM | 120% and 115% and 124% and 131%
3 µM | 107% and 125% and 118% and 105%

Sample 4
Structure (SMILES): COCCCCCCC1CC2C(CCC3(C)C(O)CCC23)c2ccc(O)cc21 (stereo not shown)
cell line | assay | setting | how to read | mRNA level ratio
SK-OV-3 | microarray, item: GADD45A | 50 µM | baseline: untreated | 6.3
SK-OV-3 | DNA microarray, item: ACTB | 50 µM | baseline: untreated cells | 0.201
SK-OV-3 | DNA microarray, item: GZMK | 50 µM | baseline: untreated cells | 17.2
PANC-1 | DNA microarray, item: CCL11 | 50 µM | baseline: untreated cells | 1
PANC-1 | DNA microarray, item: CCL22 | 50 µM | baseline: untreated cells | 1
PANC-1 | microarray, item: ISG20L1 | 10 µM | baseline: untreated | 0.983
A549 | microarray, item: CCL8 | 10 µM | baseline: untreated | 38.7
A549 | microarray, item: ADAMTS14 | 10 µM | baseline: untreated | 1.03
SK-OV-3 | microarray, item: CCL8 | 10 µM | baseline: untreated | 54.7
PANC-1 | DNA microarray, item: CCL22 | 10 µM | baseline: untreated cells | 1

For quick reference, copied from above (sample 1):
assay | log2 fold change
item: FAM50B mRNA | -0.998
item: CDK17 mRNA | 0.809
item: CIITA mRNA | -2.01
item: ID3 mRNA | -2.25
item: CDKN3 mRNA | -1.61
